# Results from different studies.
# Protocols differ between the studies behind these lines. ± gives the spread as reported.
Compound,test,system,setting,Cmax
C=CCNC1=C2C[C@@H](C)C[C@H](OC)[C@H](O)[C@@H](C)/C=C(\C)[C@H](OC(N)=O)[C@@H](OC)/C=C\C=C(/C)C(=O)NC(=CC1=O)C2=O,,"human, plasma","intravenous infusion, 300 mg/m^2, day 1, 3 h infusion",6000 nM
C=C(C)[C@@H]1CC[C@]2(NCCN3CCS(=O)(=O)CC3)CC[C@]3(C)[C@H](CC[C@@H]4[C@@]5(C)CC=C(C6=CC[C@@](CF)(C(=O)O)CC6)C(C)(C)[C@@H]5CC[C@]43C)[C@@H]12,,healthy human volunteers,"oral, 200 mg, capsule, moderate-fat meal, arithmetic mean",1260 ng/mL
CCCCCCCCCCCCCCC[C@H](O)[C@@H](N)CO,,"human, phase I, plasma","intravenous, 600 mg/m^2, day 1, monotherapy",23900 nM
COC(=O)c1ccc2c(c1)NC(=O)/C2=C(\Nc1ccc(N(C)C(=O)CN2CCN(C)CC2)cc1)c1ccccc1,,"healthy human controls matched to Child-Pugh A, plasma","oral, 100 mg single dose, fed, adjusted geometric mean",9.3 ng/mL
CCOc1ccc(Cc2cc([C@@H]3S[C@H](CO)[C@@H](O)[C@H](O)[C@H]3O)c(OC)cc2C)cc1,,"human, plasma","oral, 10 mg/day, day 1, multiple dose before breakfast",409 ± 84.3 ng/mL
NC(=O)N1CCC(CC(=O)N2CCC([C@H]3c4ncc(Br)cc4CCc4cc(Cl)cc(Br)c43)CC2)CC1,,"human, plasma","oral, 150 mg twice daily, cycle 2 day 15, added: gemcitabine 750 mg/m2",1500 ng/mL
O=C(CCCCCCC(=O)Nc1ccccc1)NO,,"human, serum","oral, 300 mg three times daily, 3 days, added: idarubicin",991 nM
CCc1nc(C(N)=O)c(Nc2ccc(N3CCC(N4CCN(C)CC4)CC3)c(OC)c2)nc1NC1CCOCC1,,"healthy humans, after high-fat breakfast, plasma","oral, 40 mg, single dose",28.6 ng/mL
CN1CCN(C2=Nc3cc(Cl)ccc3Nc3ccccc32)CC1,,"human, plasma","concentration not given, clinical literature data",2700 nM
CN1CC[C@H](c2c(O)cc(O)c3c(=O)cc(-c4ccccc4Cl)oc23)[C@H](O)C1,,"human advanced solid tumours, plasma","intravenous, 80 flavopiridol, added: oxaliplatin 85 + leucovorin/5-FU",1720 ± 540 nM
N[C@]1(C(=O)O)[C@H]2[C@@H](C[C@@H]1F)[C@@H]2C(=O)O,,"human, fed, plasma","oral, 40 mg multiple, day 14",124 ng/mL
COc1cc(C(=O)O)ccc1NC(=O)[C@@H]1N[C@@H](CC(C)(C)C)[C@](C#N)(c2ccc(Cl)cc2F)[C@H]1c1cccc(Cl)c1F,,"human, plasma","oral, 150 mg, steady state cohort B1.2, added: venetoclax 600 mg",3760 ng/mL
O=CC[C@@H](O)[C@H](O)[C@H](O)CO,HPLC-fluorescence,"human patients, plasma","oral, 45 mg/kg/day, cycle 2",426000 ± 145000 nM
COc1ccc2nc([S@@+]([O-])Cc3ncc(C)c(OC)c3C)[nH]c2c1,,"human, CYP2C19 normal metabolizers, plasma","oral, 40 mg/day, day 1",6230 ± 2840 ng/mL
O=C(c1cccnc1-c1ccncc1)N1CCC(O)(Cc2ccccc2)CC1,,"healthy human, plasma","oral, 100 mg once daily, day 1, arithmetic mean",468 ng/mL
Cc1cc(C)c2c(c1)[C@@H](N(Cc1cc(C(F)(F)F)cc(C(F)(F)F)c1)c1nnn(C)n1)CCCN2C[C@H]1CC[C@H](C(=O)O)CC1,,"human, plasma","oral, 100 mg once daily, steady state, geometric mean",377 ng/mL
O=C1Nc2ccc(Cl)cc2[C@@](C#CC2CC2)(C(F)(F)F)O1,,"healthy human, serum","oral, 400 mg single dose, added: ezetimibe",620 ± 240 ng/mL
CN(C)Cc1c(C(=O)NCCOc2ccc(C(=O)NO)cc2)oc2ccccc12,,"human, plasma","oral, 80 mg, single dose on day -3",164 ± 60.7 ng/mL
CN(Cc1cnc2nc(N)nc(N)c2n1)c1ccc(C(=O)N[C@@H](CCC(=O)O)C(=O)O)cc1,,"human, plasma","oral, 10 mg, added: apremilast 30 mg twice daily",427 ng/mL
O=C(c1cc(Cc2n[nH]c(=O)c3ccccc23)ccc1F)N1CCN(C(=O)C2CC2)CC1,,"human patients, plasma","oral, 400 mg twice daily, day 2, added: pegylated liposomal doxorubicin",6600 ± 2000 ng/mL
O=C(O)CCCCCCCNC(=O)c1ccccc1O,,"human severe renal impairment, plasma","oral, dose not given, after tenth daily dose, geometric mean",1070 nM
Cc1nc(-c2ccc(OCC(C)C)c(C#N)c2)sc1C(=O)O,,"human, plasma","oral, 80 mg, added: verinurad 10 mg",1740 ng/mL
CCN1CCN(c2ccc(Nc3cc(N(C)C(=O)Nc4c(Cl)c(OC)cc(OC)c4Cl)ncn3)cc2)CC1,,"human patients, plasma","oral, 25 mg once daily, day 1, dose level -2, mean, added: imatinib 400 mg once daily",12.6 ng/mL
Nc1ccc(-c2nc([C@H]3CCc4cc(-c5cc(Cl)ccc5-n5cnnn5)cc(=O)n43)c(F)[nH]2)c(F)n1,,"human, plasma","oral, 80 mg once daily, fed, day 14",1040 ng/mL
COc1cc(F)c(F)c(Nc2ccc(I)cc2F)c1NS(=O)(=O)C1(C[C@H](O)CO)CC1,,"human patients, plasma","oral, dose not given, cycle 1 day 15, added: copanlisib",795 ng/mL
CC(C)c1nc(CN(C)C(=O)N[C@H](C(=O)N[C@@H](Cc2ccccc2)C[C@H](O)[C@H](Cc2ccccc2)NC(=O)OCc2cncs2)C(C)C)cs1,,"human, plasma","oral, 100 mg, first dose of twice-daily regimen",373 ng/mL
COc1cc2ncnc(Nc3ccc(F)c(Cl)c3)c2cc1OCCCN1CCOCC1,,"human, plasma","oral, 250 mg, added: vorinostat 400 mg",295 ± 253 ng/mL
CCOc1cc([C@@H](CS(C)(=O)=O)N2C(=O)c3cccc(NC(C)=O)c3C2=O)ccc1OC,,"healthy human, both sexes, plasma","oral, 30 mg single dose, added: rifampicin 600 mg i.v. infusion over 30 min",324 ng/mL
CC(C)(Sc1ccncc1-c1ccc(C#N)c2ccccc12)C(=O)O,,"human, plasma","oral, 10 mg, added: febuxostat 80 mg",16.1 ng/mL
CC(C)(Sc1ccncc1-c1ccc(C#N)c2ccccc12)C(=O)O,,"human male, plasma","oral, 2.5 mg once daily, day 7 or 21, geometric mean",3.82 ng/mL
COc1ccc(-n2nc(C(N)=O)c3c2C(=O)N(c2ccc(N4CCCCC4=O)cc2)CC3)cc1,,"human male and female, plasma","oral, 10 mg, geometric least squares mean, added: cyclosporine 100 mg daily for 3 days",257 ng/mL
CC#CC(=O)N1CC[C@@H](n2c(=O)n(-c3ccc(Oc4ccccc4)cc3)c3c(N)ncnc32)C1,,"human, fasting, plasma","oral, 160 mg once daily, cycle 1 day 28",484 ng/mL
CC(C)[C@@H](C)[C@@]1(C)CC[C@]2(C)[C@H]3CC[C@@H]4[C@@]5(COC[C@@]4(C)[C@@H](OC[C@](C)(N)C(C)(C)C)[C@H](n4ncnc4-c4ccncc4)C5)C3=CC[C@@]2(C)[C@@H]1C(=O)O,,"human, both sexes, plasma","oral, 1250 mg day 1, then 750 mg days 2 and 3, day 3, geometric mean",934 ng/mL
CCCCC1(CCCC)CN(c2ccccc2)c2cc(SC)c(OCC(=O)N[C@@H](C(=O)NCC(=O)O)c3ccccc3)cc2S(=O)(=O)C1,LC-MS/MS,"human, plasma","oral, 5 mg, single dose, fasted",0.583 ng/mL
COCCCCn1c(C(=O)N(CC(C)C)[C@@H]2CNC[C@H](C(=O)N3CCOCC3)C2)nc2ccccc21,,"non-elderly human, plasma","oral, 80 mg once daily, day 1",764 ng/mL
Cc1cnc(N2CC3(CCOCC3)C2)c(C(=O)Nc2ccc(C(=O)N3CCc4cc(C(=O)Nc5c(C)cccc5F)sc4-c4ccccc43)cc2)c1,,"human, plasma","inhaled nebulised, 5 mg twice daily repeated, geometric mean",1.49 ng/mL
C=CC(=O)Nc1cc(Nc2ncc(C(=O)OC(C)C)c(-c3cn(C)c4ccccc34)n2)c(OC)cc1N(C)CCN(C)C,,"human, fasted","oral, 80 mg single dose, geometric mean",14.7 ng/mL
NS(=O)(=O)OC[C@@H]1C[C@@H](n2ccc3c(N[C@H]4CCc5ccccc54)ncnc32)C[C@@H]1O,,human,"iv, 8 mg/m^2 single dose, day 8, geometric mean, added: fluconazole",51 ng/mL
CNC(=O)c1c(C)oc2cc(Oc3ncnc4cc(OC)c(OC)cc34)ccc12,,"human, plasma","oral, 5 mg, fasted, added: rabeprazole 40 mg",121 ng/mL
CN1CC(=O)N2[C@H](c3ccc4c(c3)OCO4)c3[nH]c4ccccc4c3C[C@@H]2C1=O,,human,"oral, 40 mg, fixed-dose combination, fasted, geometric mean, added: macitentan 10 mg",469 ng/mL
O=C(/C=C/c1cccc(S(=O)(=O)Nc2ccccc2)c1)NO,,"human, normal liver function, plasma","intravenous, 400 mg/m^2, 30 min infusion, single dose, mean",21900 ng/mL
CS(=O)(=O)n1cc2c(n1)CN([C@H]1CO[C@H](c3cc(F)ccc3F)[C@@H](N)C1)C2,,"healthy male human, plasma","oral, 25 mg once weekly, day 15, fasted, geometric mean",565 nM
O=C(NC[C@H](O)CO)c1ccncc1Nc1ccc(I)cc1F,,human,"oral, 45 mg, single dose with FOLFIRI",145 ng/mL
COc1ccnc(C[S+]([O-])c2nc3ccc(OC(F)F)cc3[nH]2)c1OC (stereo not drawn),,"human, CYP2C19 intermediate metabolizers, plasma","oral, 40 mg/day, day 5",9570 ± 420 ng/mL
C[C@@H]1CN(Cc2ncccn2)C[C@H]1c1nc2c(cnn2C2CCOCC2)c(=O)[nH]1,,human,"oral, 25 mg twice daily, day 7",284 ng/mL
CO[C@H]1C[C@@H]2CC[C@@H](C)[C@@](O)(O2)C(=O)C(=O)N2CCCC[C@H]2C(=O)O[C@H]([C@H](C)C[C@@H]2CC[C@@H](O)[C@H](OC)C2)CC(=O)[C@H](C)/C=C(\C)[C@@H](O)[C@@H](OC)C(=O)[C@H](C)C[C@H](C)/C=C/C=C/C=C/1C,,"human, whole blood","oral, 25 mg, added: grapefruit juice",174 ng/mL
COc1cc2nccc(Oc3ccc(NC(=O)NC4CC4)c(Cl)c3)c2cc1C(N)=O,,"human, plasma","oral, 5 mg, geometric mean, added: placebo",43.7 ng/mL
CN[C@@H]1COc2c(S(=O)(=O)NC(=O)Nc3c4c(cc5c3CCC5)CCC4)cnn2C1,,human,"oral, 600 mg, high-fat meal, mean",24100 ng/mL
CCCS(=O)(=O)N[C@H]1C[C@@H](N(C)c2ncnc3[nH]ccc23)C1,,"humans, mild hepatic impairment","oral, 200 mg single",1280 ng/mL
Cc1cc(-c2nnc(N)nc2-c2ccc(F)cc2)cc(Cl)n1,,"human patients, plasma","oral, 150 mg capsule, single dose, arithmetic mean",1050 ng/mL
CC(C)(C(=O)NCC(F)(F)C(F)(F)F)C(=O)N[C@@H]1C(=O)Nc2ccccc2-c2ccccc21,,"human, plasma","oral, 10 mg, day 1",177 ng/mL
CNCc1ccc(-c2[nH]c3cc(F)cc4c3c2CCNC4=O)cc1,,"human cancer patients, plasma","intravenous, 18 mg/m2, day 1, added: temozolomide 200",837 ng/mL
CN1CC[C@H](c2c(O)cc(O)c3c(=O)cc(-c4ccccc4Cl)oc23)[C@H](O)C1,,"human patients, phase I, plasma","intravenous, 60 mg/m^2, cycle 1, mean, added: doxorubicin 60",3290 nM
O=C(c1ccc(OCCN2CCCCC2)cc1)c1c(-c2ccc(O)cc2)sc2cc(O[C@@H]3O[C@H](C(=O)O)[C@@H](O)[C@H](O)[C@H]3O)ccc12,,"human, plasma","oral, 60 mg raloxifene, baseline, with water",18 nM
